# Experimental data collected from several papers.
# A part holds a random share of what one study measured. Positions count from the first letter of the parent shown.

# Sample 1 — technique: protein binding microarray; molecule type: double-stranded DNA, one strand shown; matrix: in vitro; tested at: not given; baseline: not given; reading: higher = stronger binding
# Target: Histone acetyltransferase KAT6A, winged helix 1, GST fusion (KAT6A, Homo sapiens, UniProt Q92794, residues 1-85)
# Notes: 8-mer, flanks averaged, mean of 2 arrays, mostly near background
# Residues (chain): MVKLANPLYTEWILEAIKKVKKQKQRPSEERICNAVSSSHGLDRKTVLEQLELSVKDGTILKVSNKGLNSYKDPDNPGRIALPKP
Oligonucleotide,E-score
ATATGATG,-0.224
CTCGCGCA,0.357
CCCGAAGG,0.0259
CGCGGTTC,0.4
CGAGTCAA,-0.0896
ACGCTAGC,0.218
GACTGAGA,-0.149
AGGTGCAC,-0.0758
ACCTTAAC,-0.00371
GCTACAGC,-0.0356

# Sample 2 — technique: universal PBM; molecule type: double-stranded DNA, one strand shown; matrix: in vitro; tested at: 600 nM; reading: higher = stronger binding
# Target: Sal-like protein 4, full length isoform A (SALL4, Homo sapiens, UniProt Q9UJQ4, residues 1-1053)
# Chain of UniProt Q9UJQ4 (whole entry, looked up): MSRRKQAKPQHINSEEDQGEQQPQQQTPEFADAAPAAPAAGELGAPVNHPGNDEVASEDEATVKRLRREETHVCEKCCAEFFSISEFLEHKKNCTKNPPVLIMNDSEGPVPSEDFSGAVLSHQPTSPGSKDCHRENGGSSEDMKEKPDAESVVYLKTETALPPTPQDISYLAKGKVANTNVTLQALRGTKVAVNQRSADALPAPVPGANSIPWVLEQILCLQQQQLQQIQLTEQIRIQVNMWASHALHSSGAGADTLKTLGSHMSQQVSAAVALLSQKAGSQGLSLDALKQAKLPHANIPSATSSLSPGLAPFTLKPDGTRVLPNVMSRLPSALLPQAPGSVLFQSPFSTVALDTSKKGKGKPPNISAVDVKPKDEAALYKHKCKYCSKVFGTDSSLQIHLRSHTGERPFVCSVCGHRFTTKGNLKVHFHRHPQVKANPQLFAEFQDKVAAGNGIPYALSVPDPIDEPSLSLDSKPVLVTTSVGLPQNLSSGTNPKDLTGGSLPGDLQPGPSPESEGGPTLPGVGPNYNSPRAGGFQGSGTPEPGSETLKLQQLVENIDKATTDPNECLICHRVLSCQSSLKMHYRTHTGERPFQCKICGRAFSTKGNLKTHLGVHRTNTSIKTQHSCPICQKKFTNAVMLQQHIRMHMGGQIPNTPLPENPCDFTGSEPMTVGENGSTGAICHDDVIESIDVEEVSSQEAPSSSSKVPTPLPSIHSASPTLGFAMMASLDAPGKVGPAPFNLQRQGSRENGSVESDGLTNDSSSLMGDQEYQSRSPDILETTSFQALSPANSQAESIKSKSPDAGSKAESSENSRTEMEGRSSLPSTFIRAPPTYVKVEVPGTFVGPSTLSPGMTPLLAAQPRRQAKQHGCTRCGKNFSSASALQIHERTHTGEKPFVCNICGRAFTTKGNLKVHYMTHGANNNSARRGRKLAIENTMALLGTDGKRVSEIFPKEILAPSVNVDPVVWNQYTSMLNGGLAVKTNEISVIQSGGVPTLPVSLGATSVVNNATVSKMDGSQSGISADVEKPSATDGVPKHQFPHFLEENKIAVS
# Notes: 8-mer, flanks averaged, mean of replicates
Oligonucleotide,E-score
TCCCCGAA,-0.136
CGGTCCGA,-0.302
CCGTAGCA,0.0206
GAAGTACC,-0.135
AAGTGCTG,-0.032
ACTGTTGA,0.125
GGTACTCA,-0.00905
ACATGCCA,0.00645

# Sample 3 — target: CCNB1, cyclin fold, Cln2 fusion (human); technique: yeast growth competition, sequencing; matrix: yeast; notes: strong parent motif; baseline: not given; reading: higher = stronger binding
# Parent: E2F1 docking peptide (human); PPVKRRLDLETDH
Substitution,normalised enrichment score
PPVKRRLELETDH [D8E],0.802
PPVKRRDDLETDH [L7D],0.172
PPVKRRLDLMTDH [E10M],0.767
FPVKRRLDLETDH [P1F],1.8
PPVKDRLDLETDH [R5D],0.7
PPVKRRLQLETDH [D8Q],1.36
PPVKRRLRLETDH [D8R],0.822
PPGKRRLDLETDH [V3G],-0.0348

# Single results of other studies
Molecule,target,test,test system,setting,how to read,quantity,value
"PhoQ, residues 284 288 289 292 302 303 SLKLQV","PhoP, residues 12 14 15 18 19 LQHIR (Escherichia coli, UniProt P23836)","Sort-seq, item: YFP reporter",E. coli,"PhoQ-PhoP variant library, together with: 10 µM Mg2+","baseline: high Mg2+ state, higher = stronger signaling",fold induction,15

# Some of these lines once more (sample 1):
Oligonucleotide,E-score
GACTGAGA,-0.149
ACGCTAGC,0.218
GCTACAGC,-0.0356
CCCGAAGG,0.0259
CGCGGTTC,0.4
